Experimental data collected from several papers.
Numbered parts are unrelated; each lists some results of a single study. Numbers after ± are the reported error.
Sequence of UniProt P10721 (whole entry, unmodified, looked up): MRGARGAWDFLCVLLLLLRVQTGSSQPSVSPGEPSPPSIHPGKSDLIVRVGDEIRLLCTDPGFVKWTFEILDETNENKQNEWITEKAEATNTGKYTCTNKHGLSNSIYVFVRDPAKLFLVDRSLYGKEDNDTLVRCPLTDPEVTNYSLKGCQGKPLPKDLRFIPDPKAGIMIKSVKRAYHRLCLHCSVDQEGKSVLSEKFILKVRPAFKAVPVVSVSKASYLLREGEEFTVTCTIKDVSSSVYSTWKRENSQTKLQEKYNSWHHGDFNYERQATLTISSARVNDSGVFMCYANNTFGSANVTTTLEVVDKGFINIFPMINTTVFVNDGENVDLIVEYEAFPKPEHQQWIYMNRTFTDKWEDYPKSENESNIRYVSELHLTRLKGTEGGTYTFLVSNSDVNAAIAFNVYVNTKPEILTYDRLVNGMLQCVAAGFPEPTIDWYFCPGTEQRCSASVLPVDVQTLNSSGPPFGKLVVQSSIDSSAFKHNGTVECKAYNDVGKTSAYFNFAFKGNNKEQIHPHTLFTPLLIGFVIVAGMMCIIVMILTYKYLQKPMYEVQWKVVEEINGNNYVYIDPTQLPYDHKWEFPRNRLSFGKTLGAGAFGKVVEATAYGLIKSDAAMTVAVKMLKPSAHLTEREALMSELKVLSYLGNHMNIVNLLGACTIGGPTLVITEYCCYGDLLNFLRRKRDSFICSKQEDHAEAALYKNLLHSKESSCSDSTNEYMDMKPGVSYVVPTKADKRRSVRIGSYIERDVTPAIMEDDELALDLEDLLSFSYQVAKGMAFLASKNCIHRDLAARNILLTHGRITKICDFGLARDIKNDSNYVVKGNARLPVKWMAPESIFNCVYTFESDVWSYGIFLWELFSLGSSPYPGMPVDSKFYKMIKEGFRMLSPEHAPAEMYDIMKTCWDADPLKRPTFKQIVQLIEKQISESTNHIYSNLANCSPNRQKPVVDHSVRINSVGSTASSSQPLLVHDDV
Sequence of UniProt Q07912 (whole entry, looked up): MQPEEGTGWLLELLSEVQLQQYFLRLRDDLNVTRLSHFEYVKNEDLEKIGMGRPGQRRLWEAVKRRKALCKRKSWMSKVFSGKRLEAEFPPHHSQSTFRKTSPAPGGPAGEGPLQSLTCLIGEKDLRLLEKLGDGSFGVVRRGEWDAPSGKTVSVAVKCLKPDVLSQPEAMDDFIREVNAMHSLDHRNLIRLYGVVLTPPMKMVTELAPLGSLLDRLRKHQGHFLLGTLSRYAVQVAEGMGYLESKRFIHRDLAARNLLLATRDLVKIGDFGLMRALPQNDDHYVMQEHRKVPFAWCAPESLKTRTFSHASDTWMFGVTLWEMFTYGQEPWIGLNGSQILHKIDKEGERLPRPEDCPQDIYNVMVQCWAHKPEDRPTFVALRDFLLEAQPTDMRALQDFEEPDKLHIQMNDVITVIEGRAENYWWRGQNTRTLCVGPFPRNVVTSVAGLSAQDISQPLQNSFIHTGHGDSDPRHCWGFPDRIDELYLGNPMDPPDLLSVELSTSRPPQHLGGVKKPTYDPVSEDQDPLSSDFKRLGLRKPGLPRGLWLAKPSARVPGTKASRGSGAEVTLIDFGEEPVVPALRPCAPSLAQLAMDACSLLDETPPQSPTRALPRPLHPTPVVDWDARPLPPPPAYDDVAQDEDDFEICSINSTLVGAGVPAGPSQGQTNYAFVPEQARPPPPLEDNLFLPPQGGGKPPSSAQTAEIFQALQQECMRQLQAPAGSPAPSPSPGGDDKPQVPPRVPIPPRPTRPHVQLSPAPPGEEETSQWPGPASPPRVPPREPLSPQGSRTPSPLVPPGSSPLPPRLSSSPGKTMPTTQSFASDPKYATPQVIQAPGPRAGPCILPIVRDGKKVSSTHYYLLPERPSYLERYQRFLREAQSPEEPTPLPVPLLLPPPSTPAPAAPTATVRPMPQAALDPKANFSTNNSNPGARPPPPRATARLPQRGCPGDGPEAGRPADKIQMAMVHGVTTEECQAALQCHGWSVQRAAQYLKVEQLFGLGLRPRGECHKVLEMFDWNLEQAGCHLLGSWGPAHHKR
Sequence of UniProt P31749 (whole entry, looked up): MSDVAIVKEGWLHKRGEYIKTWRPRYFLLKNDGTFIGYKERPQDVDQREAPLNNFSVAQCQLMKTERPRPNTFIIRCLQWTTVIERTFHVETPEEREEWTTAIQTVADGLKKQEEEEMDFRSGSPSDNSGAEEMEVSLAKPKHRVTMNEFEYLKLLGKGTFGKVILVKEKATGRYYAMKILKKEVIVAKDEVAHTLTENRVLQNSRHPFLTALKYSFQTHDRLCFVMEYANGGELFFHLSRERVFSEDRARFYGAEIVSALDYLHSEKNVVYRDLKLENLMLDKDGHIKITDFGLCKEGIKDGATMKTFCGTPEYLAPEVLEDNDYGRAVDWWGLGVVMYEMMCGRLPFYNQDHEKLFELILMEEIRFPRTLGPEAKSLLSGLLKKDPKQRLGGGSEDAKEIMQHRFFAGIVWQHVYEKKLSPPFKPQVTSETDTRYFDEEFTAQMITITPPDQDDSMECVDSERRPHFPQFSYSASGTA
Sequence of UniProt P42336 (whole entry, unmodified, looked up): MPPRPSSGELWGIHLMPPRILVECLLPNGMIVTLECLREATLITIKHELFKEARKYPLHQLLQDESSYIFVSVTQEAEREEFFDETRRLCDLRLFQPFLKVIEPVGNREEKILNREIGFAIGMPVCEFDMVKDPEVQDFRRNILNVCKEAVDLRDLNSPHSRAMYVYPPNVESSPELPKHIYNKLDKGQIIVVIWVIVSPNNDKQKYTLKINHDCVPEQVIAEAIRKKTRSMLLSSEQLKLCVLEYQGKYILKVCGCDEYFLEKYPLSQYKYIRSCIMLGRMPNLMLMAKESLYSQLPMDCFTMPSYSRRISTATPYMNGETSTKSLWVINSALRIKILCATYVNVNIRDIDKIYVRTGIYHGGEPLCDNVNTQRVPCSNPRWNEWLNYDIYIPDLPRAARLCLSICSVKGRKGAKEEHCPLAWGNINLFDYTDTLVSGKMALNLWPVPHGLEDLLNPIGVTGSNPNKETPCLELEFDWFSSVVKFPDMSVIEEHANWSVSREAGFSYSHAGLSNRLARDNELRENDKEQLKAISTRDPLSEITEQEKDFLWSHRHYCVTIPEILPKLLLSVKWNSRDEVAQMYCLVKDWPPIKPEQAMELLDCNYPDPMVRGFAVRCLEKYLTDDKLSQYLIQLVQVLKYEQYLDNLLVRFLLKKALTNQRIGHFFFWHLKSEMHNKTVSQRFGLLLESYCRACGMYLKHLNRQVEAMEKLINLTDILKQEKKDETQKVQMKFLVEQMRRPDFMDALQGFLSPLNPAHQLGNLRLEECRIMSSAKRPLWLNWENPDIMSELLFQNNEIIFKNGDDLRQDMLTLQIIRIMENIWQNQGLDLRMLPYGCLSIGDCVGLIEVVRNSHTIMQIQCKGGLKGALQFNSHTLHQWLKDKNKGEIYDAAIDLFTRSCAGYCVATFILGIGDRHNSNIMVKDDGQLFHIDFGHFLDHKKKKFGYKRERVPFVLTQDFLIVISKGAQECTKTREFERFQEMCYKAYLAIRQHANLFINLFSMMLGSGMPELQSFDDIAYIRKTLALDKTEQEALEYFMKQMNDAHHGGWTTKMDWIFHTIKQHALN
Sequence of UniProt Q99558 (whole entry, looked up): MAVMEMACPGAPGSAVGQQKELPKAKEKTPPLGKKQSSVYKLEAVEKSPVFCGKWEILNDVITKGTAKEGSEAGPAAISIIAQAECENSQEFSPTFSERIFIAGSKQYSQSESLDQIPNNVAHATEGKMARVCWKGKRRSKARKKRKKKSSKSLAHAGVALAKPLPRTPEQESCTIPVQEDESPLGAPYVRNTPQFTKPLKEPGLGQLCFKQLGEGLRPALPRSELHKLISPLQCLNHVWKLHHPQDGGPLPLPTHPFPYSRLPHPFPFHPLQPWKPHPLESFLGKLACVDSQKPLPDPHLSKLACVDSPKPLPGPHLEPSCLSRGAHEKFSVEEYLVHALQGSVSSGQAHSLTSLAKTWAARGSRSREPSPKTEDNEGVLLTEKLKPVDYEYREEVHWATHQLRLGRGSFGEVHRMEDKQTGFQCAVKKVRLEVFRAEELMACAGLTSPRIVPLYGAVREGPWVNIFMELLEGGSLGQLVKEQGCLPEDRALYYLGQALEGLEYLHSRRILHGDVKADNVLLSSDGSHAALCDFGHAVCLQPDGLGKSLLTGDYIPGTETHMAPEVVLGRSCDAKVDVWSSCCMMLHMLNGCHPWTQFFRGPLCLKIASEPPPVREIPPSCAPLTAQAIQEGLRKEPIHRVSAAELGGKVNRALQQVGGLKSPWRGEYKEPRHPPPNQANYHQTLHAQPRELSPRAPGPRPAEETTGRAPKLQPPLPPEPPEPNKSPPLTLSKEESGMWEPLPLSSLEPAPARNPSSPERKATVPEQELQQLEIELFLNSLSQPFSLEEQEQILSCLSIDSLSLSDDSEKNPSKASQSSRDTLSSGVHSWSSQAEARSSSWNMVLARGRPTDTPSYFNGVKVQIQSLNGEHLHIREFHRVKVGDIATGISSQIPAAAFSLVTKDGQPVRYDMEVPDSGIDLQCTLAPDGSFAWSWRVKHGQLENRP

Series 1 — observed: enzyme activity; mode: inhibitor; tested at: 0.5 µM; relative to: control
Target: Tyrosine-protein kinase Fyn (FYN, Homo sapiens, UniProt P06241)
Sequence of UniProt P06241 (whole entry, looked up): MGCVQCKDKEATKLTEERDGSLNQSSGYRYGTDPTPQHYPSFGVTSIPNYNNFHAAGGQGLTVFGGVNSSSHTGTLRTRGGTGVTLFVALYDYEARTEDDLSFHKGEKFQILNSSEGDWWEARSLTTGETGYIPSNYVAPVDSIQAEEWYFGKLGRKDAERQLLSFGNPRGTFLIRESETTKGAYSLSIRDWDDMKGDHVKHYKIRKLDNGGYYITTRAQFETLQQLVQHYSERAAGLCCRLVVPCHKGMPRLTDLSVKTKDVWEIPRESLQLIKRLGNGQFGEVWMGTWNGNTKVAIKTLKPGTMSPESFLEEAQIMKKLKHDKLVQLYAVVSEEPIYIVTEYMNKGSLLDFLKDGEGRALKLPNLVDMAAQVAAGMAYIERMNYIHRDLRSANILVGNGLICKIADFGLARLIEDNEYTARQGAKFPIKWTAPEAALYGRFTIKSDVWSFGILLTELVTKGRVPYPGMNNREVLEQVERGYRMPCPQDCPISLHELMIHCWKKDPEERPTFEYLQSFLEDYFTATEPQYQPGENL
`CC(=O)c1ccc(N2CCOCC2)cc1O` gave a remaining activity of 103%.
With `O=C1NC(=O)C(c2c[nH]c3ccccc23)=C1c1c[nH]c2ccccc12` the remaining activity was 101%.
`Nc1nccc(-c2c(-c3ccc(F)cc3)ncn2C2CCNCC2)n1` gave a remaining activity of 91.1%.
For `CC#CC(=O)Nc1cc2c(Nc3ccc(F)c(Cl)c3)ncnc2cn1`, the remaining activity was 95.8%.
With `CCc1[nH]c(-c2ccc(OC)cc2)nc1-c1ccncc1` the remaining activity was 95.1%.
`O=S(=O)(NCCNC/C=C/c1ccc(Br)cc1)c1cccc2cnccc12` gave a remaining activity of 107%.
`Oc1ccc(Nc2nc(-c3ccc(Cl)cc3)cs2)cc1` has a remaining activity of 102%.
For `COc1ccc(S(=O)(=O)N(CCO)c2ccccc2CN(C)CC=Cc2ccc(Cl)cc2)cc1`, the remaining activity was 103%.
With `Cc1ccc(NC2=CC(=O)c3sc(C)nc3C2=O)cc1` the remaining activity was 95.6%.
The remaining activity of `Cc1cncc2cccc(S(=O)(=O)N3CCCN(C(=O)CN)C[C@@H]3C)c12` is reported as 94.2%.
With `Nc1ncnc2c1cnn2-c1ccccc1` the remaining activity was 97.8%.
For `CC(C)(C)n1nc(Cc2cccc3ccccc23)c2c(N)ncnc21`, the remaining activity was 44.7%.
For `CSc1nc(-c2ccnc(N[C@@H](C)c3ccccc3)c2)c(-c2ccc(F)cc2)[nH]1` (racemic), the remaining activity was 98.7%.
`Fc1ccc(-c2nc3n(c2-c2ccncc2)CCS3)cc1` has a remaining activity of 108%.
`CC[n+]1c(/C=C/N(C)c2ccccc2)n(-c2ccccc2)c2ccc(-c3nc4ccccc4s3)cc21` has a remaining activity of 99.2%.
`N#CC(=C(N)Sc1ccc(N)cc1)c1ccccc1C(F)(F)F` gave a remaining activity of 97.1%.
The remaining activity of `Nc1nc(Nc2ccc(S(N)(=O)=O)cc2)nn1C(=O)c1c(F)cccc1F` is reported as 78.6%.
`NC(=O)c1ccc(N(C(N)=O)c2c(F)cccc2F)nc1-c1ccc(F)cc1F` gave a remaining activity of 110%.
For `CCCC(=O)Oc1ccc2[nH]c(C(=O)c3cc4ccccc4[nH]3)cc2c1`, the remaining activity was 102%.
`O=C1Cc2c([nH]c3ccc([N+](=O)[O-])cc23)-c2ccccc2N1` has a remaining activity of 53.1%.
The remaining activity of `Cc1cc(Nc2nc(-c3ccccc3)nc3ccccc23)n[nH]1` is reported as 40%.

Series 2 — SMILES: CSc1cccnc1N1CCN(Cc2nc3ccccc3[nH]2)CC1; observed: cell-free assay; technique: competition with immobilised ligand; tested at: 1 µM
It gave 100% for remaining binding (KIT (Homo sapiens, UniProt P10721, A829P)).
KIT (Homo sapiens, UniProt P10721, T670I/V559D) — remaining binding: 100%.
For RAF1 (Homo sapiens, UniProt P04049): remaining binding read 91%.
For TNK1 (Homo sapiens, UniProt Q13470): remaining binding read 84%.
It gave 90% for remaining binding (ERBB3 (Homo sapiens, UniProt P21860)).
For AKT1 (Homo sapiens, UniProt P31749): remaining binding read 100%.
It gave 100% for remaining binding (CAMK2A (Homo sapiens, UniProt Q9UQM7)).
It gave 100% for remaining binding (RIPK1 (Homo sapiens, UniProt Q13546)).
For MAP3K14 (Homo sapiens, UniProt Q99558): remaining binding read 100%.
It gave 78% for remaining binding (NEK10 (Homo sapiens, UniProt Q6ZWH5)).
The remaining binding was 100% (PIK3CA (Homo sapiens, UniProt P42336, H1047Y)).
For EGFR (Homo sapiens, UniProt P00533, G719S): remaining binding read 98%.
It gave 100% for remaining binding (SBK3 (Homo sapiens, UniProt P0C264)).
It gave 100% for remaining binding (TAOK1 (Homo sapiens, UniProt Q7L7X3)).
The remaining binding was 89% (FGFR4 (Homo sapiens, UniProt P22455)).
The remaining binding was 100% (TNK2 (Homo sapiens, UniProt Q07912)).
MAP2K7 (Homo sapiens, UniProt O14733) — remaining binding: 92%.
It gave 100% for remaining binding (EPHA5 (Homo sapiens, UniProt P54756)).
MAP2K2 (Homo sapiens, UniProt P36507) — remaining binding: 70%.

Series 3 — organism: Plasmodium berghei; mode: inhibitor; cells: Huh-7; strain: GFP-expressing sporozoites, liver stage; tested at: 10 µM; time: 24 h; relative to: untreated control
For `C1CCC(C(CC2CCCCN2)C2CCCCC2)CC1` (stereo not drawn), the infection rate was 8.18%.
`C[C@H]1C[C@H]2[C@@H]3CCC4=CC(=O)C=C[C@]4(C)[C@@]3(F)[C@@H](O)C[C@]2(C)[C@@]1(O)C(=O)CO` gave an infection rate of 104%.
`O=C(N[C@H](CO)[C@H](O)c1ccc([N+](=O)[O-])cc1)C(Cl)Cl` gave an infection rate of 72.3%.
`CC1=Nc2ccc(Cl)cc2S(=O)(=O)N1` has an infection rate of 88.2%.
The infection rate of `CN(C)CCCC1(c2ccc(F)cc2)OCc2cc(C#N)ccc21` (stereo not drawn) is reported as 104%.
With `CC(=O)OCC1=C(C(=O)O)N2C(=O)[C@@H](NC(=O)Cc3cccs3)[C@H]2SC1` the infection rate was 93.6%.
`Oc1c(I)cc(Cl)c2cccnc12` has an infection rate of 53.6%.
For `NC(=NCCCCCCN=C(N)/N=C(\N)Nc1ccc(Cl)cc1)/N=C(\N)Nc1ccc(Cl)cc1`, the infection rate was 13.9%.
`NC(=O)N1c2ccccc2C=Cc2ccccc21` has an infection rate of 108%.
The infection rate of `CC(=O)OCC(=O)[C@@]1(O)[C@@H](C)C[C@H]2[C@@H]3CCC4=CC(=O)C=C[C@]4(C)[C@@]3(F)[C@@H](O)C[C@@]21C` is reported as 96.4%.
With `Nc1nc2c(ncn2COCCO)c(=O)[nH]1` the infection rate was 35.1%.
`O=c1oc2ccccc2c(O)c1Cc1c(O)c2ccccc2oc1=O` has an infection rate of 91.9%.
The infection rate of `CCOC(=O)OC(C)OC(=O)[C@@H]1N2C(=O)[C@@H](NC(=O)[C@H](N)c3ccccc3)[C@H]2SC1(C)C` (stereo partly drawn) is reported as 84.8%.

Mixed results
With `NCCc1ccc(O)c(O)c1` the Km was 1.36 ± 0.1 µM (Synaptic vesicular amine transporter (SLC18A2, Homo sapiens, UniProt Q05940); substrate).

Some of these lines once more (series 2):
It gave 78% for remaining binding (NEK10 (Homo sapiens, UniProt Q6ZWH5)).
The remaining binding was 100% (PIK3CA (Homo sapiens, UniProt P42336, H1047Y)).
For EGFR (Homo sapiens, UniProt P00533, G719S): remaining binding read 98%.
It gave 100% for remaining binding (SBK3 (Homo sapiens, UniProt P0C264)).
It gave 100% for remaining binding (TAOK1 (Homo sapiens, UniProt Q7L7X3)).
The remaining binding was 89% (FGFR4 (Homo sapiens, UniProt P22455)).
The remaining binding was 100% (TNK2 (Homo sapiens, UniProt Q07912)).
